# Earlier results, collected from citations in different studies.
# Each numbered part shows a few of the values that one paper quotes. Numbers after ± are the reported error.

# Block 1 — organism: HIV-1; observed: viral replication; cells: MT-4
# Structure (SMILES): Cn1c(Cn2ccc(C(F)(F)F)c(Oc3cc(Cl)cc(C#N)c3)c2=O)n[nH]c1=O
strain,EC50 [µM]
Y181C mutant,0.0268 ± 0.0071
Y188L mutant,2.08 ± 1.7
L100I mutant,0.0133 ± 0.0998

# Block 2 — organism: MERS-CoV; observed: viral replication; technique: ELISA; cells: Vero E6
Compound,EC50 [µM]
CCN(CC)CCOc1ccc(C(O)(Cc2ccc(Cl)cc2)c2ccc(C)cc2)cc1 (stereo not drawn),5.28
CCN(CC)Cc1cc(Nc2ccnc3cc(Cl)ccc23)ccc1O,6.21
CCN(CCO)CCCC(C)Nc1ccnc2cc(Cl)ccc12 (stereo not drawn),8.28
CN(C)CCCN1c2ccccc2Sc2ccc(Cl)cc21,9.51

# Single results of other studies
Compound,target or system,observed,species,dose,endpoint,value
C[C@@H]1C[C@H]2[C@@H]3CCC4=CC(=O)C=C[C@]4(C)[C@@]3(F)[C@@H](O)C[C@]2(C)[C@@]1(O)C(=O)CO,,,human,20 mg,Cmax,257 ng/mL
CC(C)(C)[C@H](NC(=O)C(F)(F)F)C(=O)N1C[C@H]2[C@@H]([C@H]1C(=O)N[C@H](C#N)C[C@@H]1CCNC1=O)C2(C)C,Caco-2,cytotoxicity,,,CC50,> 100 µM
